Measurements gathered from unrelated publications.
Protocols differ between the studies behind these lines. ± marks the error that the study gave. Non-standard residues stand in square brackets, D forms with d. Where no end group is shown, it is not given here. No end group written: not given here. [ ]: non-standard residue; d: D form.
VPS4: VPS4 299-415 (Saccharomyces cerevisiae, UniProt P52917)
Sequence of UniProt P52917 (whole entry, looked up): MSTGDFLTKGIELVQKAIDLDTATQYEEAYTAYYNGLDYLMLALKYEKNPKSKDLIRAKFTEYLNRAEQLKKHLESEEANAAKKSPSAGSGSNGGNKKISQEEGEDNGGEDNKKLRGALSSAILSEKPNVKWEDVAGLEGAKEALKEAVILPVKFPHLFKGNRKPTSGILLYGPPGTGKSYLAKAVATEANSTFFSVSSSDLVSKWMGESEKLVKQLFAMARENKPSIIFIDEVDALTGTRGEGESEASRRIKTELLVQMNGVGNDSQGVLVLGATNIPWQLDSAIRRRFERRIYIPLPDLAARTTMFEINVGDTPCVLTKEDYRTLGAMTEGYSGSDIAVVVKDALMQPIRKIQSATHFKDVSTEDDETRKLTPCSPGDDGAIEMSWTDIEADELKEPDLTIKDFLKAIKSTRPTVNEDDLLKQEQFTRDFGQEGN
B1: GORASP1 PDZ domain (Homo sapiens); chain EGFHLHGVQENSPAQQAGLEPYFDFIITIGHSRLNKENDTLKALLKANVEKPVKLEVFNMKTMRVREVEVVPSNMWGGQGLLGASVRFCSF
B2: NLRP3 742-1036 (Homo sapiens, UniProt Q96P20); sequence looked up; chain SLTELDLSDNSLGDPGMRVLCETLQHPGCNIRRLWLGRCGLSHECCFDISLVLSSNQKLVELDLSDNALGDFGIRLLCVGLKHLLCNLKKLWLVSCCLTSACCQDLASVLSTSHSLTRLYVGENALGDSGVAILCEKAKNPQCNLQKLGLVNSGLTSVCCSALSSVLSTNQNLTHLYLRGNTLGDKGIKLLCEGLLHPDCKLQVLELDNCNLTSHCCWDLSTLLTSSQSLRKLSLGNNDLGDLGVMMFCEVLKQQSCLLQNLGLSEMYFNYETKSALETLQEEKPELTVVFEPSW
B3: HSPB6 (Homo sapiens, UniProt O14558); sequence looked up; chain MEIPVPVQPSWLRRASAPLPGLSAPGRLFDQRFGEGLLEAELAALCPTTLAPYYLRAPSVALPVAQVPTDPGHFSVLLDVKHFSPEEIAVKVVGEHVEVHARHEERPDEHGFVAREFHRRYRLPPGVDPAAVTSALSPEGVLSIQAAPASAQAPPPAAAK
B4: MYH7 839-968 (Homo sapiens, UniProt P12883); sequence looked up; chain LLKSAEREKEMASMKEEFTRLKEALEKSEARRKELEEKMVSLLQEKNDLQLQVQAEQDNLADAEERCDQLIKNKIQLEAKVKEMNERLEDEEEMNAELTAKKRKLEDECSELKRDIDDLELTLAKVEKEK
B5: rpn10 (Schizosaccharomyces pombe, UniProt O94444); sequence looked up; chain MVLEATMILIDNSEWMINGDYIPTRFEAQKDTVHMIFNQKINDNPENMCGLMTIGDNSPQVLSTLTRDYGKFLSAMHDLPVRGNAKFGDGIQIAQLALKHRENKIQRQRIVAFVGSPIVEDEKNLIRLAKRMKKNNVAIDIIHIGELQNESALQHFIDAANSSDSCHLVSIPPSPQLLSDLVNQSPIGQGVVASQNQFEYGVDPNLDVELALALELSMAEERARQEVAAQKSSEETEDKKMQE
B6: PLG Glu-plasminogen, mature; chain EPLDDYVNTQGASLFSVTKKQLGAGSIEECAAKCEEDEEFTCRAFQYHSKEQQCVIMAENRKSSIIIRMRDVVLFEKKVYLSECKTGNGKNYRGTMSKTKNGITCQKWSSTSPHRPRFSPATHPSEGLEENYCRNPDNDPQGPWCYTTDPEKRYDYCDILECEEECMHCSGENYDGKISKTMSGLECQAWDSQSPHAHGYIPSKFPNKNLKKNYCRNPDRELRPWCFTTDPNKRWELCDIPRCTTPPPSSGPTYQCLKGTGENYRGNVAVTVSGHTCQHWSAQTPHTHNRTPENFPCKNLDENYCRNPDGKRAPWCHTTNSQVRWEYCKIPSCDSSPVSTEQLAPTAPPELTPVVQDCYHGDGQSYRGTSSTTTTGKKCQSWSSMTPHRHQKTPENYPNAGLTMNYCRNPDADKGPWCFTTDPSVRWEYCNLKKCSGTEASVVAPPPVVLLPDVETPSEEDCMFGNGKGYRGKRATTVTGTPCQDWAAQEPHRHSIFTPETNPRAGLEKNYCRNPDGDVGGPWCYTTNPRKLYDYCDVPQCAAPSFDCGKPQVEPKKCPGRVVGGCVAHPHSWPWQVSLRTRFGMHFCGGTLISPEWVLTAAHCLEKSPRPSSYKVILGAHQEVNLEPHVQEIEVSRLFLEPTRKDIALLKLSSPAVITDKVIPACLPSPNYVVADRTECFITGWGETQGTFGAGLLKEAQLPVIENKVCNRYEFLNGRVQSTELCAGHLAGGTDSCQGDSGGPLVCFEKDKYILQGVTSWGLGCARPNKPGVYVRVSRFVTWIEGVMRNN
B7: MYBPC3 1-95 (Homo sapiens, UniProt Q14896); sequence looked up; chain MPEPGKKPVSAFSKKPRSVEVAAGSPAVFEAETERAGVKVRWQRGGSDISASNKYGLATEGTRHTLTVREVGPADQGSYAVIAGSSKVKFDLKVI
B8: Sema6A ectodomain , Fc fusion 19-571 (Mus musculus, UniProt O35464); chain GFPEDSEPISISHGNYTKQYPVFVGHKPGRNTTQRHRLDIQMIMIMNRTLYVAARDHIYTVDIDTSHTEEIYCSKKLTWKSRQADVDTCRMKGKHKDECHNFIKVLLKKNDDTLFVCGTNAFNPSCRNYRVDTLETFGDEFSGMARCPYDAKHANIALFADGKLYSATVTDFLAIDAVIYRSLGDSPTLRTVKHDSKWLKEPYFVQAVDYGDYIYFFFREIAVEYNTMGKVVFPRVAQVCKNDMGGSQRVLEKQWTSFLKARLNCSVPGDSHFYFNILQAVTDVIRINGRDVVLATFSTPYNSIPGSAVCAYDMLDIANVFTGRFKEQKSPDSTWTPVPDERVPKPRPGCCAGSSSLEKYATSNEFPDDTLNFIKTHPLMDEAVPSIINRPWFLRTMVRYRLTKIAVDNAAGPYQNHTVVFLGSEKGIILKFLARIGSSGFLNGSLFLEEMNVYNPEKCSYDGVEDKRIMGMQLDRASGSLYVAFSTCVIKVPLGRCERHGKCKKTCIASRDPYCGWVRESGSCAHLSPLSRLTFEQDIERGNTDGLGDCHNS
B9: RbgA 1-282 (Bacillus subtilis, UniProt O31743); chain MTIQWFPGHMAKARREVTEKLKLIDIVYELVDARIPMSSRNPMIEDILKNKPRIMLLNKADKADAAVTQQWKEHFENQGIRSLSINSVNGQGLNQIVPASKEILQEKFDRMRAKGVKPRAIRALIIGIPNVGKSTLINRLAKKNIAKTGDRPGITTSQQWVKVGKELELLDTPGILWPKFEDELVGLRLAVTGAIKDSIINLQDVAVFGLRFLEEHYPERLKERYGLDEIPEDIAELFDAIGEKRGCLMSGGLINYDKTTEVIIRDIRTEKFGRLSFEQPTM
B10: MMP9/TIMP1 proenzyme complex 20-707 (Homo sapiens); chain 1 APRQRQSTLVLFPGDLRTNLTDRQLAEEYLYRYGYTRVAEMRGESKSLGPALLLLQKQLSLPETGELDSATLKAMRTPRCGVPDLGRFQTFEGDLKWHHHNITYWIQNYSEDLPRAVIDDAFARAFALWSAVTPLTFTRVYSRDADIVIQFGVAEHGDGYPFDGKDGLLAHAFPPGPGIQGDAHFDDDELWSLGKGVVVPTRFGNADGAACHFPFIFEGRSYSACTTDGRSDGLPWCSTTANYDTDDRFGFCPSERLYTQDGNADGKPCQFPFIFQGQSYSACTTDGRSDGYRWCATTANYDRDKLFGFCPTRADSTVMGGNSAGELCVFPFTFLGKEYSTCTSEGRGDGRLWCATTSNFDSDKKWGFCPDQGYSLFLVAAHEFGHALGLDHSSVPEALMYPMYRFTEGPPLHKDDVNGIRHLYGPRPEPEPRPPTTTTPQPTAPPTVCPTGPPTVHPSERPTAGPTGPPSAGPTGPPTAGPSTATTVPLSPVDDACNVNIFDAIAEIGNQLYLFKDGKYWRFSEGRGSRPQGPFLIADKWPALPRKLDSVFEERLSKKLFFFSGRQVWVYTGASVLGPRRLDKLGLGADVAQVTGALRSGRGKMLLFSGRRLWRFDVKAQMVDPRSASEVDRMFPGVPLDTHDVFQYREKAYFCQDRFYWRVSSRSELNQVDQVGYVTYDILQCPED; chain 2 CTCVPPHPQTAFCNSDLVIRAKFVGTPEVNQTTLYQRYEIKMTKMYKGFQALGDAADIRFVYTPAMESVCGYFHRSHNRSEEFLIAGKLQDGLLHITTCSFVAPWNSLSLAQRRGFTKTYTVGCEECTVFPCLSIPCKLQSGTHCLWTDQLLQGSEKGFQSRHLACLPREPGLCTWQSLRSQIA
Sequence of UniProt Q07954 (whole entry, looked up): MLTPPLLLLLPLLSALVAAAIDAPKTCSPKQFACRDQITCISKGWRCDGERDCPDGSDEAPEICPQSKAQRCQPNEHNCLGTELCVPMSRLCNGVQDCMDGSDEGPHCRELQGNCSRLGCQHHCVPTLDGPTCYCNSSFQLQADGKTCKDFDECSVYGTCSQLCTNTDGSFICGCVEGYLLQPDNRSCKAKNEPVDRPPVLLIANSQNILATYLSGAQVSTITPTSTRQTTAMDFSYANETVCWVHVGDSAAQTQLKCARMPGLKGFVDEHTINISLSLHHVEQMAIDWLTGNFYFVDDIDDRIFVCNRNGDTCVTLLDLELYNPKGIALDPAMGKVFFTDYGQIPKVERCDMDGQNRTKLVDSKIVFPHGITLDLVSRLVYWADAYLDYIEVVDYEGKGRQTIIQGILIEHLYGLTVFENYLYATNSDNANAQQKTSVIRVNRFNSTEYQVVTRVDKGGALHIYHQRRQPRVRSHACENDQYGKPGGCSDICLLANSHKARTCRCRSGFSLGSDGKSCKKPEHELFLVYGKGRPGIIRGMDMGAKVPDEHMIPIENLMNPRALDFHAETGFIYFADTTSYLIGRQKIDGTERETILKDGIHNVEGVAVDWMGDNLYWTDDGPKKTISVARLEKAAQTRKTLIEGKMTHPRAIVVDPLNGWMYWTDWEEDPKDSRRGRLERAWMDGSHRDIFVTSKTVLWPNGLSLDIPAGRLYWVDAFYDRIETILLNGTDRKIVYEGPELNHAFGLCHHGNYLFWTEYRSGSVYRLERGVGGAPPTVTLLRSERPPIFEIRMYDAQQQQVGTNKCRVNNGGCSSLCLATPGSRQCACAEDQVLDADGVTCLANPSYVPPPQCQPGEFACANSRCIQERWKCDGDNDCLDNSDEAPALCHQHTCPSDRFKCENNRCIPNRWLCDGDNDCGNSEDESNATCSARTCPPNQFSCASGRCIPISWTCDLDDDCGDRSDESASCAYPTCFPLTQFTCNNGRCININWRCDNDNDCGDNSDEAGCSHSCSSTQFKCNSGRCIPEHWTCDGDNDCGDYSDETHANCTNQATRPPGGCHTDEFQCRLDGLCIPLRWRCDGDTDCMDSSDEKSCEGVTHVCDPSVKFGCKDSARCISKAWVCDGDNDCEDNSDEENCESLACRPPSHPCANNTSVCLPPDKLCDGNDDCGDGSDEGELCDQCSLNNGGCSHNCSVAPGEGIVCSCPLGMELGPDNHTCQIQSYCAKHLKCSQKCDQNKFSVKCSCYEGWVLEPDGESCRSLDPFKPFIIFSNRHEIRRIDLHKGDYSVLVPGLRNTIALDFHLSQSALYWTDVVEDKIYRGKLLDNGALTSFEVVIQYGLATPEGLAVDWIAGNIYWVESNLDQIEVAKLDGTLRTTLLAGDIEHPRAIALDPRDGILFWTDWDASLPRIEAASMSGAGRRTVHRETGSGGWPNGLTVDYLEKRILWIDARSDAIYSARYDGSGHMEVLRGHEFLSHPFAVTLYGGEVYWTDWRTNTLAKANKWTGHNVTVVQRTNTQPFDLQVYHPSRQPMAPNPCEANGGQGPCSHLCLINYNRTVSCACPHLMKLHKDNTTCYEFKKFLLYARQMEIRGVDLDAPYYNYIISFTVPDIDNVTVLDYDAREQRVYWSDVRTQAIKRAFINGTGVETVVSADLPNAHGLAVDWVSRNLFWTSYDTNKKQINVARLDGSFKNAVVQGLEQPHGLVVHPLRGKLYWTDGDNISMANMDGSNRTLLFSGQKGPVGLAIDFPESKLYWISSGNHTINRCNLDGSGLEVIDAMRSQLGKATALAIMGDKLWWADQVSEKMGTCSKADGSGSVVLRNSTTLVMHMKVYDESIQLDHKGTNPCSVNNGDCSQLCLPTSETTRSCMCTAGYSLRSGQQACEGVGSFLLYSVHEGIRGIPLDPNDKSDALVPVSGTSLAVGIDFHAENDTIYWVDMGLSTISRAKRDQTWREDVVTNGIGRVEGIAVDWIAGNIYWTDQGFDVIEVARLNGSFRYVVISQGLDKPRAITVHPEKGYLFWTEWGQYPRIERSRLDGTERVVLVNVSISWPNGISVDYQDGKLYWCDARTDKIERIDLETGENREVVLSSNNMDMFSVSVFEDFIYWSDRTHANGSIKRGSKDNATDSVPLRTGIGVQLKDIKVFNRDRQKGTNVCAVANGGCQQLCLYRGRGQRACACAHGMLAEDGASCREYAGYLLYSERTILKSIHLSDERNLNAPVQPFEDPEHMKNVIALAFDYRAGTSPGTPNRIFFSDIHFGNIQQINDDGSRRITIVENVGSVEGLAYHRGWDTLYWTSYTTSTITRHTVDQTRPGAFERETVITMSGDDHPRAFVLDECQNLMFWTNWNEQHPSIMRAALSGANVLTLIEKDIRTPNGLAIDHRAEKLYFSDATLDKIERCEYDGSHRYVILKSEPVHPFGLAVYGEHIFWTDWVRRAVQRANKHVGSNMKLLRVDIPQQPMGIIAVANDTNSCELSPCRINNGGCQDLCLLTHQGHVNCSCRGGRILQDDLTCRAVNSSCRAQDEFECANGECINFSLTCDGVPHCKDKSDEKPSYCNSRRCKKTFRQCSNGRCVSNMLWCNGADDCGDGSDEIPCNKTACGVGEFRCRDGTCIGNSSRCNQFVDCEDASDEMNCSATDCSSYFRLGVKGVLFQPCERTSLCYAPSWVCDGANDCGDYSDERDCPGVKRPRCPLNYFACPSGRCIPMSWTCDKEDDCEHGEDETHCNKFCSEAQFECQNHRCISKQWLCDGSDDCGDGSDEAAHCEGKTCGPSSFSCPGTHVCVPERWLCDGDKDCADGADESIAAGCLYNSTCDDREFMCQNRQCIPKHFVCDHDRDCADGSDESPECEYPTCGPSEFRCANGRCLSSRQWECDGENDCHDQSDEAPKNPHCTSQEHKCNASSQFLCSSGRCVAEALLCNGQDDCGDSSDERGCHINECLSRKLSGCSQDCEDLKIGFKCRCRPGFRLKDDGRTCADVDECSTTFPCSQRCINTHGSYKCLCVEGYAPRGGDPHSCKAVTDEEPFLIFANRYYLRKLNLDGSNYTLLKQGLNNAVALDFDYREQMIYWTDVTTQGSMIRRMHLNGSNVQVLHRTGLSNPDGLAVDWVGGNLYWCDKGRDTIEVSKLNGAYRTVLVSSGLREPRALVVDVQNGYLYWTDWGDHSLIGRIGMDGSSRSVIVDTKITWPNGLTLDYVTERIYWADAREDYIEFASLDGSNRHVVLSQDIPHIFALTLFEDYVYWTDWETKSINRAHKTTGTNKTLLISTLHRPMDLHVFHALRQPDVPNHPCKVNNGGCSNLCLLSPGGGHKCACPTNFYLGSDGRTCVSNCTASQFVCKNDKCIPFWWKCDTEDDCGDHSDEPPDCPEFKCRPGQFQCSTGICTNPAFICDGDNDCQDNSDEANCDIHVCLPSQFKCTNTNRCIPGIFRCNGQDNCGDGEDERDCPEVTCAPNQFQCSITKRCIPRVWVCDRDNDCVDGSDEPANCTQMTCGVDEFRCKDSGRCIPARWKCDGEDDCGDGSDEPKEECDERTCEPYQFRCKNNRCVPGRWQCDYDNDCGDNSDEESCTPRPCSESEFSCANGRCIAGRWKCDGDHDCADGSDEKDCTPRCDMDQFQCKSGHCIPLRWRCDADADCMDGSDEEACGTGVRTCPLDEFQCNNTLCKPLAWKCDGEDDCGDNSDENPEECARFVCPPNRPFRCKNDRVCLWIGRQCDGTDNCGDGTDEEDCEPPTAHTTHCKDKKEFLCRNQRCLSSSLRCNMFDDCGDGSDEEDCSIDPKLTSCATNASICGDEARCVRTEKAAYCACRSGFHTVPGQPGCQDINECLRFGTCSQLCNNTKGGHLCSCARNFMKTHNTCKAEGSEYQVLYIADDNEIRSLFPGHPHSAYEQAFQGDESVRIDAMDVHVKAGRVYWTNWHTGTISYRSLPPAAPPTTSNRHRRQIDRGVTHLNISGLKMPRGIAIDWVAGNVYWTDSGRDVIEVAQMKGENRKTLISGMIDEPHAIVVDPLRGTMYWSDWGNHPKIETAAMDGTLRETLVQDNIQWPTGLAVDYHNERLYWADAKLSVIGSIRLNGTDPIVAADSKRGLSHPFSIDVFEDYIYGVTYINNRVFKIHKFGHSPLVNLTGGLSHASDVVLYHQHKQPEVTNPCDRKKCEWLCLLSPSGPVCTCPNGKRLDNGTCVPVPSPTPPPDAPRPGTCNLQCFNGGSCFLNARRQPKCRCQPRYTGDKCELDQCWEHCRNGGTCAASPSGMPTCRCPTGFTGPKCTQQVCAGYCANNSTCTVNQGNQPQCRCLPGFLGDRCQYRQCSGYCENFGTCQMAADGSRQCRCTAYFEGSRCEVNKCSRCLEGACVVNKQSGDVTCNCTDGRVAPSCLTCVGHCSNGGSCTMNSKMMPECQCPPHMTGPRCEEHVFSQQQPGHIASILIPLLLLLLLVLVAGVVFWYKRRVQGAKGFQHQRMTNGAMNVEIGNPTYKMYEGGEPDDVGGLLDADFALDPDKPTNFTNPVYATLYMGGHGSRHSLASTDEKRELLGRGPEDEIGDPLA
Sequence of UniProt Q9BYN0 (whole entry, looked up): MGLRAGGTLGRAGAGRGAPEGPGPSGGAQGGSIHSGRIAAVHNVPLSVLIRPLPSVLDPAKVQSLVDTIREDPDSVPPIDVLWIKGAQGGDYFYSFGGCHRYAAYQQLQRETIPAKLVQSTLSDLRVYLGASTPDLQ

The Kd of `B1 (GORASP1 PDZ domain)` is reported as 53.8 µM (RPS6KA1 fragment, pS732 (Homo sapiens); holdup assay; estimated).
With `B2 (NLRP3 742-1036)` the Kd was 0.882 µM (PPM1A, RED-NHS dye label (Homo sapiens, UniProt P35813); MST; 25 °C).
`Apoa5 (Mus musculus, UniProt Q8C7G5)` has a Kd of 0.00053 µM (ANGPTL3/ANGPTL8; SPR; pH 7.4, 25 °C, NaCl 150 mM, with: CaCl2 4 mM).
`EDFRSGSEAFDLIAQDEEEFNK (CEP192 506-527 (Homo sapiens, UniProt Q8TEP8))` gave a Kd of 15.8 µM (AURKA kinase domain 123-403, phosphorylated (Homo sapiens, UniProt O14965); ITC).
For `MGLQERRGSNVSLTLDM (PTPN5 residues 214-230)`, the Kd was 3.57 ± 0.208 µM (MAPK14 unphosphorylated (UniProt Q16539); ITC; peptide; 25 °C).
For `B3 (HSPB6)`, the Kd was 1.2 µM (BAG3 (Homo sapiens, UniProt O95817); ITC; 25 °C, relative values).
`S100A4, QSY 35 on amines (Homo sapiens, UniProt P26447)` has a Kd of 0.0836 µM (SRXN1, Alexa 546 label (Homo sapiens, UniProt Q9BYN0); FRET; apparent, with EGTA).
For `RRRRRRRC / CGSFPPWVQKTEV (peptide)`, the Kd was 0.0274 µM (DLG4 309-422 (Homo sapiens, UniProt P78352); SPR; peptide).
The Kd of `B4 (MYH7 839-968)` is reported as 200 ± 30 µM (MYH7/MYL3 sS1 1-808 H251N (Homo sapiens); MST; pH 7.5, KCl 100 mM, Hill fit, with: ADP 500 µM).
The Kd of `B5 (rpn10)` is reported as 182 ± 35 µM (rpn12 1-250 N106A/H112A/E116A, Oregon Green label (Schizosaccharomyces pombe, UniProt P50524); fluorescence polarization; 0-370 µM, 20 min, pH 7.4, 25 °C, NaCl 150 mM).
For `TKDELTKIMDRASKIEQIQKLAKYAIRALNYEDLPTAKDELTKALDLLNSI (VTA1 280-330 S306R (Saccharomyces cerevisiae, UniProt Q06263); sequence looked up)`, the Kd was > 1000 µM (VPS4; SPR; pH 7.0, NaCl 150 mM, equilibrium fit).
With `B6 (PLG Glu-plasminogen, mature)` the Kd was > 1 µM (APOH mature (Homo sapiens, UniProt P02749); optical biosensor).
For `APADGEGGSELQPKNKRMTISRLVLEEDSQSTEPSAGLNSSQE (TERF2 382-424 (Homo sapiens, UniProt Q15554); sequence looked up)`, the Kd was 0.176 µM (TINF2/ACD TPP1 486-544 (Homo sapiens); ITC).
`AR[pT][Lys(Me3)]QTARKSTG (histone H3 2-13 (UniProt P68431); pT3/K4me3; pT = C[C@@H](OP(=O)(O)O)[C@H](N)C(=O)O; Lys(Me3) = C[N+](C)(C)CCCC[C@H](N)C(=O)O; sequence looked up)` gave a Kd of 174 µM (PHF8 PHD finger 37-106 (Homo sapiens, UniProt Q9UPP1); NMR titration; peptide).
The Kd of `TKDELTKIMDRASKIEQIQKLAKYAISALNYEALPTAKDELTKALDLLNSI (VTA1 280-330 D312A (Saccharomyces cerevisiae, UniProt Q06263); sequence looked up)` is reported as > 1000 µM (VPS4; SPR; pH 7.0, NaCl 150 mM, equilibrium fit).
The Kd of `B7 (MYBPC3 1-95)` is reported as 3.2 ± 1.7 µM (MYH7/MYL2 MYH7 806-963; ITC).
With `AR[pT][Lys(Me3)]QTARKSTG (histone H3 2-13 (UniProt P68431); pT3, K4me3; pT = C[C@@H](OP(=O)(O)O)[C@H](N)C(=O)O; Lys(Me3) = C[N+](C)(C)CCCC[C@H](N)C(=O)O; sequence looked up)` the Kd was 11.5 ± 1 µM (BIRC5 1-142 (Homo sapiens, UniProt O15392); ITC; peptide; pH 7.2).
`B8` has a Kd of 0.015 µM (PlxnA2 35-703 (Mus musculus, UniProt P70207); SPR; Fc fusion).
`B9 (RbgA 1-282)` gave a Kd of 37 µM (engA, Red-NHS dye label (Bacillus subtilis, UniProt P50743); MST; 1 h, pH 7.5, 25 °C, with: GMPPNP 1 mM).
`SYK C-terminal SH2 domain` gave a Kd of 2.4 µM (CLEC1B fragment, pY7 (Homo sapiens); SPR; equilibrium Kd).
The Kd of `SGRGK(Ac)GGKGL (histone H4 residues 1-10; acetylated K5)` is reported as 91.4 µM (ATAD2 bromodomain 981-1108, Cys1057-Cys1079 disulfide (Homo sapiens, UniProt Q6PL18); ITC; peptide; pH 7.0, 5 °C, NaCl 150 mM).
`B10` has a Kd of 0.023 µM (LRP1 (Homo sapiens, UniProt Q07954); SPR; 25 °C, bivalent model).

Repeated from above:
For `TKDELTKIMDRASKIEQIQKLAKYAIRALNYEDLPTAKDELTKALDLLNSI (VTA1 280-330 S306R (Saccharomyces cerevisiae, UniProt Q06263); sequence looked up)`, the Kd was > 1000 µM (VPS4; SPR; pH 7.0, NaCl 150 mM, equilibrium fit).
The Kd of `TKDELTKIMDRASKIEQIQKLAKYAISALNYEALPTAKDELTKALDLLNSI (VTA1 280-330 D312A (Saccharomyces cerevisiae, UniProt Q06263); sequence looked up)` is reported as > 1000 µM (VPS4; SPR; pH 7.0, NaCl 150 mM, equilibrium fit).
